Assay results of several laboratories.
Protocols differ between the studies behind these lines. “And” joins repeats or separate records; there may be more than shown. Converted amounts (≈) assume the structure as drawn.

Compound | target or system | test | system | conditions | scale | quantity | value
Fc1ccc(Nc2c(-c3cc(Cl)ccn3)nc3ccccn23)cc1 | Leishmania infantum | – | macrophages, MHOM/MA(BE)/67/ITMAP263, amastigote | – | – | IC50 | 3.17 µM and 25.7 µM
Cl.OCCNc1nc(Nc2ccccc2)nc2ccccc12 | Renilla luciferase reporter mRNA | in vitro translation, inhibitor | Trypanosoma cruzi translation extract | 30 µM | – | inhibition | 64.6%
O=C(O)CNC(=O)Cc1ccccc1 | – | – | ventricular cardiomyocytes, C57BL/6 mouse | dose not given, 0.008 s | – | sarcomere length | 1.72 µm
CC(C)n1ncc2c(C(=O)NCC3(C)CNC3)cc(C3CC3)nc21 | Enterovirus D68 | cytopathic effect | RD, US/IL/14-18956 | 150 nM | – | cell protection | 0.422% and 0.703% and 0%
Clc1cccc(-c2c(-c3ccccn3)nc3n2CCC3)c1 | Leishmania infantum | – | macrophages, MHOM/MA(BE)/67/ITMAP263, amastigote | – | – | IC50 | 0.35 µM and 2.16 µM
CCn1cc(-c2cc(Cn3ccoc3=N)cc3c2CCN([C@@H](C)c2cc(OC)ccn2)C3=O)c(C(F)(F)F)n1 | SW48 | cell growth, inhibitor | – | 120 h | – | EC50 | 0.0165 µM
CCOC(=O)c1ccccc1O | THP-1 | pyroptotic LDH release | – | 2 µM, 40 min, together with: LPS then nigericin | – | inhibition | -16.1%
Nc1nc(-c2ccccc2)nc2[nH]nc(Nc3ccc(C(F)(F)F)cc3)c12 | coxsackievirus B3 | – | 31-1-93, NMRI mice, CVB3 chronic myocarditis | oral, 100 mg/kg twice daily, day 7, dosed days 0 to 6, score scale 0 to 7 | direction not given | clinical score | 0.1
Oc1ccccc1-c1n[nH]cc1-c1ccnc2ccccc12 | IRE1 (Candida albicans) | kinase binding, MIB/MS competition | Candida albicans lysate | 10 µM | baseline: DMSO | log2 fold change | 0.21
CC(C)(C)[C@H]1CC[C@H](CC2=C(O)C(=O)c3ccccc3C2=O)CC1 | THP-1 | pyroptotic LDH release | – | 2 µM, 40 min, together with: LPS then nigericin | – | inhibition | 44.8%
CCN1CCN(Cc2ccc(Nc3ncc(F)c(-c4cc(F)c5nc6n(c5c4)[C@H](C)CCC6)n3)nc2)CC1 | – | – | human advanced solid tumours | 300 mg, phase Ia monotherapy RECIST 1.1 | – | disease control rate | 66.7%
CN1CCC(COc2cnc(-c3cccc(Cn4nc(-c5cccc(C#N)c5)ccc4=O)c3)nc2)CC1 | THP-1 | pyroptotic LDH release | – | 2 µM, 40 min, together with: LPS then nigericin | – | inhibition | 30.6%
CC(=O)NC[C@H]1CN(c2ccc(N3CCOCC3)c(F)c2)C(=O)O1 | Staphylococcus epidermidis | – | methicillin-resistant, 10 isolates | pH 7.0 | – | MIC50 | 1 µg/mL (≈ 2.96 µM)
CSc1ccc2nc(-c3ccccn3)c(Nc3ccc(F)cc3)n2c1 | Leishmania infantum | – | macrophages, MHOM/MA(BE)/67/ITMAP263, amastigote | – | – | IC50 | 8.11 µM and 8.3 µM
C[C@]1(COc2ccc(N3CCC(Oc4ccc(OC(F)(F)F)cc4)CC3)cc2)Cn2cc([N+](=O)[O-])nc2O1 | THP-1 | pyroptotic LDH release | – | 2 µM, 40 min, together with: LPS then nigericin | – | inhibition | 16.4%
Cc1ccc2nc(-c3ccccn3)c(CN(CC(C)C)c3cccc(C(F)(F)F)c3)n2c1 | Leishmania infantum | – | MHOM/MA(BE)/67/ITMAP263 | 120 h | baseline: CC50 macrophages over EC50 amastigotes | selectivity index | 10
CCC[S+]([O-])c1ccc2[nH]c(NC(=O)OC)nc2c1 (stereo not drawn) | THP-1 | pyroptotic LDH release | – | 2 µM, 40 min, together with: LPS then nigericin | – | inhibition | 24.4%
c1coc(-c2n[nH]cc2-c2ccnc3ccccc23)c1 | IRE1 (Candida albicans) | kinase binding, MIB/MS competition | Candida albicans lysate | 1 µM | baseline: DMSO | log2 fold change | -0.21
Fc1ccc(Nc2c(-c3ccccn3)nc3ccc(F)cn23)cc1 | Leishmania infantum | – | macrophages, MHOM/MA(BE)/67/ITMAP263, amastigote | – | – | IC50 | 8.64 µM and 8.3 µM
COc1cnc2cccc(N3CCc4c(cc(Cn5ccnc5C)cc4-c4cn(C)nc4C(F)(F)F)C3=O)c2c1 | COV644 | cell growth | – | 120 h | – | EC50 | 14.4 µM
CC(=O)c1ccc(-c2c(-c3ccccn3)nc3n2CCC3)cc1 | Leishmania infantum | – | macrophages, MHOM/MA(BE)/67/ITMAP263, amastigote | – | – | IC50 | 7.25 µM and 6.13 µM
Cn1cc(-c2ccc(-c3cncc(Cl)c3N3CCC4(CCNC4=O)CC3)cc2)cn1 | COLO 205 | gene expression, microarray, refers to: PFKFB4 mRNA | – | concentration not given, 6 h | baseline: untreated cells | log2 fold change | 2.54
OC(CCN1CCCCC1)(c1ccccc1)C1CC2C=CC1C2 (stereo not drawn) | – | resting-state EEG | healthy elderly humans | oral, 4 mg, eyes closed, LS mean | – | power, EEG beta, O2-Pz | 6.1 µV²
COc1cc2c(cc1OC)C1CC(=O)C(CC(C)C)CN1CC2 (stereo not drawn) | THP-1 | pyroptotic LDH release | – | 2 µM, 40 min, together with: LPS then nigericin | – | inhibition | 7.07%
Fc1ccc(Nc2c(-c3ccccn3)nc3ccc(-c4cnoc4)cn23)cc1 | Leishmania infantum | – | macrophages, MHOM/MA(BE)/67/ITMAP263, amastigote | – | – | IC50 | 12.7 µM and 50.8 µM
NCC(=O)Nc1cncc(-c2nn3c(=O)cc(N4CCNCC4)nc3s2)c1 | – | ADP-induced platelet aggregation, light transmission aggregometry | human, stable CAD on aspirin, platelets ex vivo | subcutaneous, 0.075 mg/kg, 240 min post-dose, together with: ADP 20 µM | – | median inhibition | 3.8%
Cc1c[nH]c2ccccc12 | THP-1 | pyroptotic LDH release | – | 2 µM, 40 min, together with: LPS then nigericin | – | inhibition | -1.51%
Cc1ccc2nc(-c3ccccc3)c(CNc3cccc(C(F)(F)F)c3)n2c1 | Leishmania infantum | – | MHOM/MA(BE)/67/ITMAP263 | 120 h | baseline: CC50 macrophages over EC50 amastigotes | selectivity index | 2
CC(S)C(=O)NCC(=O)O (stereo not drawn) | THP-1 | pyroptotic LDH release | – | 2 µM, 40 min, together with: LPS then nigericin | – | inhibition | -44.2%
CCn1cc(-c2cc(Cn3ccnc3)cc3c2CCN([C@H](c2cc(OC)ccn2)C2CC2)C3=O)c(C(F)(F)F)n1 | SUM-159-PT | cell growth, inhibitor | – | 120 h | – | EC50 | 10.3 µM
